Measured values gathered from unrelated publications.
Parts stem from different laboratories: compare values within a part only.

Series 1
Molecule: PhoQ, residues 284 288 289 292 302 303 AGGCYF
Technique: Sort-seq
Item: YFP reporter
Matrix: E. coli
Setting: PhoQ-PhoP variant library
With: 10 µM Mg2+
Relative to: high Mg2+ state
Direction: higher = stronger signaling
It gave 2 for fold induction (PhoP, residues 12 14 15 18 19 TQALL (Escherichia coli, UniProt P23836)).
It gave 13.8 for fold induction (PhoP, residues 12 14 15 18 19 NYFRM (Escherichia coli, UniProt P23836)).
For PhoP, residues 12 14 15 18 19 QYFSL (Escherichia coli, UniProt P23836): fold induction read 15.5.

Series 2
Target: Histone acetyltransferase KAT6A, both winged helices, GST fusion (KAT6A, Homo sapiens, UniProt Q92794, residues 1-181)
Technique: protein binding microarray
Form: double-stranded DNA, one strand shown
Matrix: in vitro
Concentration: not given
Setting: 8-mer, flanks averaged, mean of 2 arrays, mostly near background
Relative to: not given
Direction: higher = stronger binding
Residues (chain): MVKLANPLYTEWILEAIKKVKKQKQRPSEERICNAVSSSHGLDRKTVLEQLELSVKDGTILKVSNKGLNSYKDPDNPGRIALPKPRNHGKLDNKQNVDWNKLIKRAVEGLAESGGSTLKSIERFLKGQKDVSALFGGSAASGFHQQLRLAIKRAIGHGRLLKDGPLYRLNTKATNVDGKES
For `CGGATTGC`, the E-score was 0.246.
`ACGCTGCG` has an E-score of 0.185.
`TCGAGCAA` gave an E-score of -0.0925.
The E-score of `CCAGGTCC` is reported as -0.102.
With `AATCAATG` the E-score was 0.101.
`CAGCCAAC` gave an E-score of -0.0352.
`ATTCTGTC` gave an E-score of -0.0177.
`ACTTGTCT` has an E-score of -0.315.
With `CGGCCCTA` the E-score was 0.112.
`ATTTTTCC` has an E-score of -0.0367.
The E-score of `ACTCCATG` is reported as -0.061.
`CCGAGTGA` gave an E-score of 0.00492.
The E-score of `GGGGGTCA` is reported as -0.166.
`CGAGCGCG` has an E-score of 0.354.

Series 3
Target: Centromere-binding protein 1, full length, N-terminal tag (CBF1, Saccharomyces cerevisiae, UniProt P17106, residues 1-351)
Sequence of UniProt P17106 (whole entry, looked up): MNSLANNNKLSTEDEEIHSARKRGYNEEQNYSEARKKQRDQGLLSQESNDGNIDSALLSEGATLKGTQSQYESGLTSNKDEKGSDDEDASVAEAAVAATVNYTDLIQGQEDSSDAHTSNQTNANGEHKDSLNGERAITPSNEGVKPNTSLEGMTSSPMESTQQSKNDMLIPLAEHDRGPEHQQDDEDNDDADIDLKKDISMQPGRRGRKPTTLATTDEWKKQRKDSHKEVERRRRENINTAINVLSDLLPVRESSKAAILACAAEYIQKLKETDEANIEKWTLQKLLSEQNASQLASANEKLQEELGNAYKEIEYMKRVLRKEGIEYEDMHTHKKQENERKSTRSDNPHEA
Technique: protein-binding microarray
Form: double-stranded DNA, one strand shown
Matrix: in vitro
Concentration: 0.8 µM
Setting: whole 60-bp probe, no competitor
Direction: higher = stronger binding
`GAACGATAAAAGACCCTCACCTGTGTCACTAAATAGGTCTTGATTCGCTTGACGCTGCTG` gave a fluorescence intensity of 510 a.u.
With `CCTAACTACTATATTCTGATGATATAGCTTCGTACAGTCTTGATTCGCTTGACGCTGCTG` the fluorescence intensity was 496 a.u.
`CTATGAATTATCCGTGATGGCAGCGTACAATCCTTCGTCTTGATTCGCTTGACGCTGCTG` has a fluorescence intensity of 568 a.u.
`CTATCATGTTGTTATCACCCCACGACGAAGATATTCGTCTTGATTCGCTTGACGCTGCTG` gave a fluorescence intensity of 555 a.u.
`GAATTCCAATCGGAGCACGTGAATTTGTAACCATAGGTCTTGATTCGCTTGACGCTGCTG` has a fluorescence intensity of 4660 a.u.
With `CTACCAAAATACATCCTCGTGGCATCCCAGGTTTTCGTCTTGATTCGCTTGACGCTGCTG` the fluorescence intensity was 579 a.u.
`CTAACGCCATCTCAGCGTGTGACATGATAATTTTTCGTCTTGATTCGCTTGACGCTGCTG` gave a fluorescence intensity of 882 a.u.
For `GAATCTTGTTAAGATTACATCAGCACTAACAAATAGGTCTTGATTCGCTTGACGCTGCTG`, the fluorescence intensity was 516 a.u.
`CTATATTAAATAACTCAGCTGAGATTTCTCATTTTCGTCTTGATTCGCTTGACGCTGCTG` has a fluorescence intensity of 466 a.u.

Series 4
Target: RING finger protein unkempt homolog, zinc fingers 1-6, GST-SBP tag (UNK, Homo sapiens, UniProt Q9C0B0, residues 30-357)
Sequence of UniProt Q9C0B0 (30-357, looked up): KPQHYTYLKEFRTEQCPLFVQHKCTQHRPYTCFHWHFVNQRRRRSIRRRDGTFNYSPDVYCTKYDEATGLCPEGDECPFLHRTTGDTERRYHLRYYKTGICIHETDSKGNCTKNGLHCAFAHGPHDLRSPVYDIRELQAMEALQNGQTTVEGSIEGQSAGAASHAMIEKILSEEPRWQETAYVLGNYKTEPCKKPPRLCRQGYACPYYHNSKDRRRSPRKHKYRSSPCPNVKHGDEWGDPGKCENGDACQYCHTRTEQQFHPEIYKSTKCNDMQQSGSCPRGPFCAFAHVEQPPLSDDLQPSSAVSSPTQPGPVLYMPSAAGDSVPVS
Technique: RNA Bind-n-Seq
Form: RNA
Matrix: in vitro
Concentration: not given
Setting: RNA with constant flanks, human and mouse sites, ends assumed
Relative to: input RNA pool
Direction: higher = stronger binding
The bound/input enrichment of `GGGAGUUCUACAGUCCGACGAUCAUAUCUUCAGAAGAGGGAGAGACAGAAGCCAAUAACCCCAAGAAGUUGUCUGAUUUUGGAAUUAGAAACGGCAGCCGGCUUCAAGCAGACGACUUCCUCCAGGACUAUACUUUGCUGAUCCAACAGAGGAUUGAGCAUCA` is reported as 0.26 ratio.
The bound/input enrichment of `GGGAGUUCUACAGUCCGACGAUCGUUCAGAAGAGGUUUGGCUUUCCAGAGGGCAGUGUAGAGCUUUAUGCUGAAAAGGUGGCCACUAGAGGUCUGUGUGCCAUUGCCCAGGCAGAGUCUCUGCGUUACAAACUCCUAGGAGGGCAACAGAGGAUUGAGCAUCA` is reported as 0.202 ratio.
The bound/input enrichment of `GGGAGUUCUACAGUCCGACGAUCGUGCACACGGGCGAGCGGCCCCACCAGUGCCCCGAGUGCGGGAAGCGCUUUACCAAUAAGCCCUAUCUGACUUCGCACCGGCGCAUCCACACCGGCGAGAAGCCCUACCCGUGCAAAGAGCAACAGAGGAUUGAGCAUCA` is reported as 0.102 ratio.
`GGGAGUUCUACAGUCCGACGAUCGUAGCCCUUGCAGCAUGGCUGACCAACUGACUGAAGAGCAGAUUGCAGAGUUCAAAGAAGCUUUCUCACUAUUUGACAAGGACGGGGAUGGGACAAUAACAACAAAGGAGCUGGGGACAGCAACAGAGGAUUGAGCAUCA` gave a bound/input enrichment of 0.405 ratio.
`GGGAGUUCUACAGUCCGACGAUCGUCAGCAAGACAUCUGUAUAGAUUCUGCUUCAUCCGUGAGAGAGAAUAAGCAACCUGAAGGUUUGGAAUUAAAACAAGGAAAAGGGGAAGAUAGUGAUGUACUCAGUAUAAAUGCAGAUGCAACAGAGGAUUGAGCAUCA` gave a bound/input enrichment of 0.761 ratio.
`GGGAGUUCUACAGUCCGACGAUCGUCUAUCUUAAUCUGGUGCUGGACUAUGUUCCGGAAACAGUAUACAGAGUUGCCAGACACUAUAGUCGAGCCAAACAGACGCUCCCUGUGAUUUAUGUCAAGUUGUAUAUGUAUCAGCUGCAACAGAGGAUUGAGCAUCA` gave a bound/input enrichment of 0.13 ratio.
With `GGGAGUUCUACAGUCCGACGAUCAAAGAUAUAGAUUGUGUAUACGAAGCUUUAUUGAACACUGCCAUUGACGUAGAUUCAUUAGAAGCAAACUCACAUUUAGAUGAAGUCUGGAUCAAAGAAGUUAUAAAGAAGGCAGGAAUGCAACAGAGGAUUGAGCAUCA` the bound/input enrichment was 0.72 ratio.
With `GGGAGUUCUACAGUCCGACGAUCGGUACUAAUGCAUCUGCAUUUGACCAGCUUAUCCUUACAUUGGCAUGGGAUAGAGUUGACAUUGCCAAAAAUCAUGUAUUUGUUUAUGGACAGCAGUGGCUGGUUGGAUCCUUGGAACAACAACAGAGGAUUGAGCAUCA` the bound/input enrichment was 0.2 ratio.
The bound/input enrichment of `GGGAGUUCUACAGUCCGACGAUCGGAGAGGCCCUGCAUUGCCAGCUGUCCGUUCCUCCAUUCAUCUGUUUCUUCUGCUGCCCUUAGUUUGAUCCUCACCAUCCACGUUUUGGCUUCCGUUUGCCCUUAUCAAAGGGUCUCUGCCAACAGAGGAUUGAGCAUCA` is reported as 0.407 ratio.
The bound/input enrichment of `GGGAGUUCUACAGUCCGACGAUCAAACAGAGCCUGGAUGUGCUAGAUCUCUGUGAGGGUGACCUGUCCCCAGGACUCACAGACUCUACGGCCCCCUCCUCAGAGUUGGGCAAGGACGACCUGGAAGAGUUGGCUGCAGCUGCCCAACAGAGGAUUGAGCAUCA` is reported as 0.128 ratio.
With `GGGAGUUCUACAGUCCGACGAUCAGUAAACCUGGCAGCUAUAGAAUACACUAUGUGCAUUUAUAAUAGCUAUUUUAUAUAUUGUAGUAUCAACAUUUUUAAAUUAAAUGUUUUACAUUCACAAGUGGUGGGGAGUCUUGUCAUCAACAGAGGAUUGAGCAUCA` the bound/input enrichment was 2.77 ratio.
